Assay results gathered from unrelated publications.
Each line is one published result; not all experiments were run side by side. ± gives the spread as reported. Square brackets hold non-standard residues; d marks the D form. Ends that are not written are not given here.
T1: Psmc3ip/Mnd1 K63A/Y65A/K67A/R64A/Y70A/Y71A (Mus musculus); chain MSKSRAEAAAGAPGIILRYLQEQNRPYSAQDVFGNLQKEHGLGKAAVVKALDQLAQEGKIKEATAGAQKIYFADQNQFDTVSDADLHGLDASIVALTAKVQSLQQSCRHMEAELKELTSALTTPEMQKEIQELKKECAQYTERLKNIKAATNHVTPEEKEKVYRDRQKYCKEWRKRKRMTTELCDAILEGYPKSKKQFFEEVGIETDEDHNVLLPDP; chain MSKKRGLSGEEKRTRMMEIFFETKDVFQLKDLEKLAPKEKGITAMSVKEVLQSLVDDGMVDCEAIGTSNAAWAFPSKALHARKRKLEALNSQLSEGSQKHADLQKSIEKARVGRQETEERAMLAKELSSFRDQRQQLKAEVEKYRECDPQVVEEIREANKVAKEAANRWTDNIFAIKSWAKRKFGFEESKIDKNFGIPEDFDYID
B1: DMC1 (Homo sapiens, UniProt Q14565); chain MKEDQVVAEEPGFQDEEESLFQDIDLLQKHGINVADIKKLKSVGICTIKGIQMTTRRALCNVKGLSEAKVDKIKEAANKLIEPGFLTAFEYSEKRKMVFHITTGSQEFDKLLGGGIESMAITEAFGEFRTGKTQLSHTLCVTAQLPGAGGYPGGKIIFIDTENTFRPDRLRDIADRFNVDHDAVLDNVLYARAYTSEHQMELLDYVAAKFHEEAGIFKLLIIDSIMALFRVDFSGRGELAERQQKLAQMLSRLQKISEEYNVAVFVTNQMTADPGATMTFQADPKKPIGGHILAHASTTRISLRKGRGELRIAKIYDSPEMPENEATFAITAGGIGDAKE
B2: FBN1 147-287 (Homo sapiens, UniProt P35555); chain QPVCESGCLNGGRCVAPNRCACTYGFTGPQCERDYRTGPCFTVISNQMCQGQLSGIVCTKTLCCATVGRAWGHPCEMCPAQPHPCRRGFIPNIRTGACQDVDECQAIPGLCQGGNCINTVGSFECKCPAGHKLNEVSQKCE
B3: HNRNPH1 192-280 (Homo sapiens, UniProt P31943); chain RTHYDPPRKLMAMQRPGPYDRPGAGRGYNSIGRGAGFERMRRGAYGGGYGGYDDYNGYNDGYGFGSDRFGRDLNYCFSGMSDHRYGDGG
B4: Fmnl3 555-954 (Mus musculus, UniProt Q6ZPF4); chain GLSAIRIKKPIKTKFRLPVFNWTALKPNQINGTVFSELDDEKILEDLDLDRFEELFKTKAQGPALDLICSKNKTAQKAASKVTLLEANRAKNLAITLRKAGRSAEEICRAIHTFDLQTLPVDFVECLMRFLPTEAEVKLLRQYERERQPLEELAAEDRFMLLFSKVERLTQRMAGMAFLGNFQDNLQMLTPQLNAIIAASASVKSSQKLKQMLEIILALGNYMNSSKRGAVYGFKLQSLDLLLDTKSTDRKMTLLHFIALTVKEKYPELANFWQELHFVEKAAAVSLENVLLDVKELGRGMELIRRECSIHDNSVLRNFLSTNEGKLDKLQRDAKTAEEAYNAVVRYFGESPKTTPPSVFFPVFVRFIRSYKEAEQENEARKKQEEVMREKQLAQEAKKL
B5: Fmnl3 555-954 R782A (Mus musculus, UniProt Q6ZPF4); chain GLSAIRIKKPIKTKFRLPVFNWTALKPNQINGTVFSELDDEKILEDLDLDRFEELFKTKAQGPALDLICSKNKTAQKAASKVTLLEANRAKNLAITLRKAGRSAEEICRAIHTFDLQTLPVDFVECLMRFLPTEAEVKLLRQYERERQPLEELAAEDRFMLLFSKVERLTQRMAGMAFLGNFQDNLQMLTPQLNAIIAASASVKSSQKLKQMLEIILALGNYMNSSKAGAVYGFKLQSLDLLLDTKSTDRKMTLLHFIALTVKEKYPELANFWQELHFVEKAAAVSLENVLLDVKELGRGMELIRRECSIHDNSVLRNFLSTNEGKLDKLQRDAKTAEEAYNAVVRYFGESPKTTPPSVFFPVFVRFIRSYKEAEQENEARKKQEEVMREKQLAQEAKKL
B6: protein mature (Micrurus tener tener, UniProt G9I930); disulfide bonds; chain NLNQFRLMIKCTNDRVWADFVDYGCYCVARDSNTPVDDLDRCCQAQKQCYDEAVKVHGCKPLVMFYSFECRYLASDLDCSGNNTKCRNFVCNCDRTATLCILTATYNRNNHKIDPSRCQ
B7: KREPA2 1-587 (Trypanosoma brucei, UniProt A0A3L6L0V2); chain MYRRFFRSAAVKHLGTTSAQCLMRATKYPCGAMCRNASSCHPQTLGYQQRFQSTTDKKFHCSVCKKPFRLEMAAKLHLQQAHGGDGSVEAGPGPGVEASSVNVVSTPVPSPISPVERTFVDEEERRPRRMRPTPKPLHQPDRDIPAAAMEEMLGVWDKIGLNRLEGNFVHSTMVMKVFAAPPDVSEIPLYEHVAPEGENPFDSLDHMTTGTVDATYVGHDAFAEVDLVDPFVAAPDQTLNPFRAGKVRNPFTRISPTQREVVKPLQPPQPKEEPLKAPVTPFGQLPMFGQTREPSASFAAAAVSVQAAANPNEVSSPFAAAVSSSPFVGQVASPFAPAQDVAGSPFEASPCAASSPFVTAGGQETSPFAAPSTPASFGQGSLFPPMGTGAPGFTAITETEQRQQELEHGCPTCGKKFSTFEGAAMHSKSKHGIVLESKKVKDRLNRKGVPDLPAYVPSPVDLSSTSPFGTRSAIGASWAETELIPHAQCVSNITIVGRVLDVSQASENVSHVTVFVEGERSGEEETLTLCCFGEVSQKIRGTLKRNATIFASGTLRLHPVYEASNNKYYVSPVVHVSMPTGTLAVIT
B8: TRAP 26-496 (Plasmodium falciparum, UniProt P16893); sequence looked up; chain RDVQNNIVDEIKYSEEVCNDQVDLYLLMDCSGSIRRHNWVNHAVPLAMKLIQQLNLNDNAIHLYVNVFSNNAKEIIRLHSDASKNKEKALIIIRSLLSTNLPYGRTNLTDALLQVRKHLNDRINRENANQLVVILTDGIPDSIQDSLKESRKLSDRGVKIAVFGIGQGINVAFNRFLVGCHPSDGKCNLYADSAWENVKNVIGPFMKAVCVEVEKTASCGVWDEWSPCSVTCGKGTRSRKREILHEGCTSEIQEQCEEERCPPKWEPLDVPDEPEDDQPRPRGDNSSVQKPEENIIDNNPQEPSPNPEEGKDENPNGFDLDENPENPPNPDIPEQKPNIPEDSEKEVPSDVPKNPEDDREENFDIPKKPENKHDNQNNLPNDKSDRNIPYSPLPPKVLDNERKQSDPQSQDNNGNRHVPNSEDRETRPHGRNNENRSYNRKYNDTPKHPEREEHEKPDNNKKKGESDNKYK
B9: Fmnl3 555-954 I649A (Mus musculus, UniProt Q6ZPF4); chain GLSAIRIKKPIKTKFRLPVFNWTALKPNQINGTVFSELDDEKILEDLDLDRFEELFKTKAQGPALDLICSKNKTAQKAASKVTLLEANRAKNLAATLRKAGRSAEEICRAIHTFDLQTLPVDFVECLMRFLPTEAEVKLLRQYERERQPLEELAAEDRFMLLFSKVERLTQRMAGMAFLGNFQDNLQMLTPQLNAIIAASASVKSSQKLKQMLEIILALGNYMNSSKRGAVYGFKLQSLDLLLDTKSTDRKMTLLHFIALTVKEKYPELANFWQELHFVEKAAAVSLENVLLDVKELGRGMELIRRECSIHDNSVLRNFLSTNEGKLDKLQRDAKTAEEAYNAVVRYFGESPKTTPPSVFFPVFVRFIRSYKEAEQENEARKKQEEVMREKQLAQEAKKL

| Substance | target or system | assay | test system | setting | scale | quantity | result |
| --- | --- | --- | --- | --- | --- | --- | --- |
| CD24/Siglec-10 blocking peptide, D-amino acids | CD274 (Homo sapiens, UniProt Q9NZQ7) | competition with ligand, flow cytometry | – | in cells | – | IC50 | 30.2 µM |
| ACE2/ALB albumin fusion, FcRn non-binding x (Homo sapiens) | FCGRT (Homo sapiens, UniProt P55899) | serum sandwich ELISA | hFcRn+/+ hAlb+/+ transgenic mice | 4 mg/kg, in vivo, intravenous | – | elimination half-life | 3.1 h |
| B1 (DMC1) | T1, Psmc3ip/Mnd1 K63A/Y65A/K67A/R64A/Y70A/Y71A (Mus musculus) | pull-down | – | – | – | binding | binds |
| C3a mature (UniProt P01027) | C3ar1 (Mus musculus, UniProt O09047) | glucose-stimulated insulin secretion, agonist | islets | 100 nM | reference: no C3a, higher = more secretion | insulin secretion increase | 40% |
| B2 (FBN1 147-287) | FBLN5 42-448 (Homo sapiens, UniProt Q9UBX5) | ELISA | – | – | – | binding | binds |
| B3 (HNRNPH1 192-280) | HNRNPH1 192-449 (Homo sapiens, UniProt P31943) | trapping in hydrogel, hydrogel binding | – | pH 7.5, 4 °C, NaCl 200 mM | – | binding | binds |
| CNSRQTDREDELI | – | – | peptide, human polyclonal IgM RF STR | concentration not given, 5 µg/mL mAb II-481 coated, together with: RF at 50% max binding concentration | – | inhibition | 0% |
| B4 (Fmnl3 555-954) | ACTA1, TMR label (Oryctolagus cuniculus, UniProt P68135) | AUC | – | KCl 50 mM | – | fraction bound | 0.91 fraction |
| rpoD (Escherichia coli, UniProt P00579) | rpoB/rpoC core RNA polymerase (Escherichia coli) | pausing efficiency | – | consensus TEC | – | apparent Kd | 0.145 µM |
| B5 (Fmnl3 555-954 R782A) | ACTA1, pyrene label (Oryctolagus cuniculus, UniProt P68135) | inhibition of filament elongation, inhibitor, pyrene-actin assay | – | – | – | IC50 | 0.0025 µM |
| B6 (protein mature) | protein, N-terminal pyroglutamate, disulfides (Micrurus tener tener, UniProt G9I929) | ITC | – | 15 °C, NaCl 150 mM | – | ΔH | -18.9 ± 1.3 kcal/mol |
| melittin | – | isothermal titration calorimetry | POPC/POPG LUVs 50:50% | 100 µM, pH 7.0, 40 °C | – | partitioning enthalpy | -10.9 kcal/mol |
| BUD4 fragment (Saccharomyces cerevisiae) | IQG1 (Saccharomyces cerevisiae, UniProt Q12280) | two-hybrid | – | – | higher = stronger interaction | beta-galactosidase activity | 558.67 ± 0.3 Miller units |
| AR[pT]KQTARKSTG (H3C1 1-12; pT3; pT = C[C@@H](OP(=O)(O)O)[C@H](N)C(=O)O) | BIRC5 1-142 (Homo sapiens, UniProt O15392) | ITC | peptide | pH 8.2, 25 °C | – | Kd | 46.4 ± 5.2 µM |
| RmS-17, glycosylated (Rhipicephalus microplus) | PRTN3 (Homo sapiens, UniProt P24158) | chromogenic substrate hydrolysis, inhibitor | – | 1 µM | – | protease inhibition | < 20% |
| RH5 (Plasmodium falciparum, UniProt Q8IFM5) | BSG 22-269 (Homo sapiens, UniProt P35613-2) | flow cytometry | human RBCs | together with: RII EBA-175 2 µM | reference: unstimulated RBCs, higher = more binding | relative binding | 3.7 fold |
| B7 (KREPA2 1-587) | KREL1 51-469 (Trypanosoma brucei) | nicked dsRNA ligation | – | – | reference: without molecule, higher = more ligation | increase in ligation efficiency | 30% |
| B8 (TRAP 26-496) | ITGAV/ITGB3 ectodomain heterodimer 31-992 (Homo sapiens) | SPR | – | – | – | koff | 0.00332 ± 2e-05 s⁻¹ |
| B9 (Fmnl3 555-954 I649A) | ACTA1, pyrene label (Oryctolagus cuniculus, UniProt P68135) | elongation termination | – | formin 100 nM, together with: capping protein 20 nM | – | capping protein protection time | 150 s |
| RmS-6, glycosylated (Rhipicephalus microplus) | PLG plasmin (Homo sapiens) | chromogenic substrate hydrolysis, inhibitor | – | 1 µM | – | protease inhibition | 24.1% |

Some of these lines once more:
| Substance | target or system | assay | test system | setting | scale | quantity | result |
| --- | --- | --- | --- | --- | --- | --- | --- |
| BUD4 fragment (Saccharomyces cerevisiae) | IQG1 (Saccharomyces cerevisiae, UniProt Q12280) | two-hybrid | – | – | higher = stronger interaction | beta-galactosidase activity | 558.67 ± 0.3 Miller units |
| AR[pT]KQTARKSTG (H3C1 1-12; pT3; pT = C[C@@H](OP(=O)(O)O)[C@H](N)C(=O)O) | BIRC5 1-142 (Homo sapiens, UniProt O15392) | ITC | peptide | pH 8.2, 25 °C | – | Kd | 46.4 ± 5.2 µM |
